# Assay results pooled from the literature.
# Lines come from different studies, so protocols differ. Several values in a cell are separate wells, animals, samples, runs or records. ± gives the spread as reported.
# BRD9: Bromodomain-containing protein 9 (BRD9, Homo sapiens, UniProt Q9H8M2)
# UniProt Q9H8M2, sequence (whole entry, looked up): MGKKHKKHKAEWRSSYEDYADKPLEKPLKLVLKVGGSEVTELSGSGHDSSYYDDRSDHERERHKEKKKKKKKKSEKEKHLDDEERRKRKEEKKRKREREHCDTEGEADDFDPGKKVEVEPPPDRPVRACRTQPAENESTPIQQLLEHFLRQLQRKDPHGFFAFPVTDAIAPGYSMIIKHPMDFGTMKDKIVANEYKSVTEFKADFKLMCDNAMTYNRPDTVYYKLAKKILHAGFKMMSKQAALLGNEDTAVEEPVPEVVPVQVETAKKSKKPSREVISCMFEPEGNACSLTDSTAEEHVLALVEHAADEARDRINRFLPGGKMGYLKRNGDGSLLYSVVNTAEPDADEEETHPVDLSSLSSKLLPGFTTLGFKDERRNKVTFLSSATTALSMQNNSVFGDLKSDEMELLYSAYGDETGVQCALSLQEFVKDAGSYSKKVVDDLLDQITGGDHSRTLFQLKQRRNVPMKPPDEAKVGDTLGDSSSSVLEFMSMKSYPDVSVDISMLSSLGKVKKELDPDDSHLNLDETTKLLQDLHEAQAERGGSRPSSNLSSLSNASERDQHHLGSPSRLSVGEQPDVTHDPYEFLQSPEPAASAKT
# CSNK1D: Casein kinase I isoform delta (CSNK1D, Homo sapiens, UniProt P48730)
# UniProt P48730, sequence (whole entry, looked up): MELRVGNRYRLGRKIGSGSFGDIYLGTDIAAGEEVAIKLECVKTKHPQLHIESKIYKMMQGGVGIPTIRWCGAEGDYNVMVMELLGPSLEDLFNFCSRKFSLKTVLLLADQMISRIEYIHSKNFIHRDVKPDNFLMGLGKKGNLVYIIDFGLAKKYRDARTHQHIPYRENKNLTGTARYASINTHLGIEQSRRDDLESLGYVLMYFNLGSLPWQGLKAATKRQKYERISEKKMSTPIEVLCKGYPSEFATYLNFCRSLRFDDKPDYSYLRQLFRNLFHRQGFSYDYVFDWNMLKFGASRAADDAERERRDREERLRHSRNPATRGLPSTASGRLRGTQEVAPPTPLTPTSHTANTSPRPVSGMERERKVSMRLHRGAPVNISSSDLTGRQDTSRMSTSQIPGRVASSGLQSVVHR
# Protein AF-9 with DOT1L: Protein AF-9, with DOT1L (Homo sapiens, UniProt P42568)
# UniProt P42568, sequence (whole entry, looked up): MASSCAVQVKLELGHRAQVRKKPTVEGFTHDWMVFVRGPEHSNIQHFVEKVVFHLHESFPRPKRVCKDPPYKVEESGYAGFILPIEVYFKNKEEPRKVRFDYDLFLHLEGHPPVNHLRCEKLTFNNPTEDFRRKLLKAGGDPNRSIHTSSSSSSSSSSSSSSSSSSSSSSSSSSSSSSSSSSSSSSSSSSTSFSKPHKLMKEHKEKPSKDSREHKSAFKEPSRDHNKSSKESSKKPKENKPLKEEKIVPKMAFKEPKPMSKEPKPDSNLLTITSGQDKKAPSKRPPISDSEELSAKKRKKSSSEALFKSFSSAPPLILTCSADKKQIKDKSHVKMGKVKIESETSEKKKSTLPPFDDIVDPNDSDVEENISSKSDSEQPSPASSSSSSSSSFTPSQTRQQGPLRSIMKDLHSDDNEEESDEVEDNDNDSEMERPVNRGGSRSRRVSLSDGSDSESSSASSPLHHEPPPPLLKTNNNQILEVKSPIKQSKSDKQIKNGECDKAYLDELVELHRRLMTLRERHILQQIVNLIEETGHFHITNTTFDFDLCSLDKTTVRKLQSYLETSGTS
# BEST2: Bestrophin-2a (BEST2, Homo sapiens, UniProt Q8NFU1)
# UniProt Q8NFU1, sequence (whole entry, looked up): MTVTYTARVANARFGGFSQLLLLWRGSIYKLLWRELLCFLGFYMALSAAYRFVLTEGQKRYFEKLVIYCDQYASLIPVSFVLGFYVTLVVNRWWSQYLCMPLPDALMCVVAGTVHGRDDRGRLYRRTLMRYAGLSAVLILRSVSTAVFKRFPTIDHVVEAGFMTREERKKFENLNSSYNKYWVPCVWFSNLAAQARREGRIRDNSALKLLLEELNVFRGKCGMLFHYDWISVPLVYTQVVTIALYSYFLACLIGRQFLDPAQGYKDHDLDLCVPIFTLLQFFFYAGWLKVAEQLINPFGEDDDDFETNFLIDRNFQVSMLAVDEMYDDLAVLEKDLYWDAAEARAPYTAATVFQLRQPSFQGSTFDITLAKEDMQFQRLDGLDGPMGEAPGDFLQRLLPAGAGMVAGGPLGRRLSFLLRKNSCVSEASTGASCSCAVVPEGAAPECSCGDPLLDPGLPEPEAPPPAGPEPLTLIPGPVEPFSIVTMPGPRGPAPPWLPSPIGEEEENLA
# CD274: Programmed cell death 1 ligand 1 (CD274, Homo sapiens, UniProt Q9NZQ7)
# UniProt Q9NZQ7, sequence (whole entry, looked up): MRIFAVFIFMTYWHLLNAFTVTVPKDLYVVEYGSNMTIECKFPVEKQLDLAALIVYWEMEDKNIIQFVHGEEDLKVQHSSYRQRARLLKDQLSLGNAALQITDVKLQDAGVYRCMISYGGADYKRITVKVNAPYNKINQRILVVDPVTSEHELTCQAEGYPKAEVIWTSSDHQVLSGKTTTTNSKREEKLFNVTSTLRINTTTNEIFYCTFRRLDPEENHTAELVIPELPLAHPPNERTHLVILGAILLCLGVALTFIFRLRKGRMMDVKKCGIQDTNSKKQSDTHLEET
# IDE: Insulin-degrading enzyme (IDE, Homo sapiens, UniProt P14735)
# SIRT3: NAD-dependent protein deacetylase sirtuin-3, mitochondrial (SIRT3, Homo sapiens, UniProt Q9NTG7)
# UniProt Q9NTG7, sequence (whole entry, looked up): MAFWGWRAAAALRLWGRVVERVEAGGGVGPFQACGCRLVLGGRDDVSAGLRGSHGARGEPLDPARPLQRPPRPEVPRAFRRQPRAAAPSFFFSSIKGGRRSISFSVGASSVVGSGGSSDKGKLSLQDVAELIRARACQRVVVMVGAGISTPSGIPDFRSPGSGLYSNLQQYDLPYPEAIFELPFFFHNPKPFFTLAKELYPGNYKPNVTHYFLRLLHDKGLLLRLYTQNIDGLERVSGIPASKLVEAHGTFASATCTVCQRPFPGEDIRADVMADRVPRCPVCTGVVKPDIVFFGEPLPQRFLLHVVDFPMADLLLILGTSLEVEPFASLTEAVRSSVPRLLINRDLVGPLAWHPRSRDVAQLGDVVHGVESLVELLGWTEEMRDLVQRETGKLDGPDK
# ATP-sensitive inward rectifier potassium channel 1: ATP-sensitive inward rectifier potassium channel 1 (Homo sapiens, UniProt P48048)
# UniProt P48048, sequence (whole entry, looked up): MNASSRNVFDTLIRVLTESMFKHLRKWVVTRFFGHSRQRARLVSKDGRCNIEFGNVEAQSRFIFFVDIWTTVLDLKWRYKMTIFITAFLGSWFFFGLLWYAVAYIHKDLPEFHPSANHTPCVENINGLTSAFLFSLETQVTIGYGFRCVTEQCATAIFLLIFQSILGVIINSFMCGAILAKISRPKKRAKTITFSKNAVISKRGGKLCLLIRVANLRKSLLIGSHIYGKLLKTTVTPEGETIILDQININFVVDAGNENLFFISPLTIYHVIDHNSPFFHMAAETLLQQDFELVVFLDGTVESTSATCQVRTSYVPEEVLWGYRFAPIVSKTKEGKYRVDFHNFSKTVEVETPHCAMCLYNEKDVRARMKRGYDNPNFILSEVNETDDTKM
# AXL: Tyrosine-protein kinase receptor UFO (AXL, Homo sapiens, UniProt P30530)
# UniProt Q8IWT6, sequence (whole entry, unmodified, looked up): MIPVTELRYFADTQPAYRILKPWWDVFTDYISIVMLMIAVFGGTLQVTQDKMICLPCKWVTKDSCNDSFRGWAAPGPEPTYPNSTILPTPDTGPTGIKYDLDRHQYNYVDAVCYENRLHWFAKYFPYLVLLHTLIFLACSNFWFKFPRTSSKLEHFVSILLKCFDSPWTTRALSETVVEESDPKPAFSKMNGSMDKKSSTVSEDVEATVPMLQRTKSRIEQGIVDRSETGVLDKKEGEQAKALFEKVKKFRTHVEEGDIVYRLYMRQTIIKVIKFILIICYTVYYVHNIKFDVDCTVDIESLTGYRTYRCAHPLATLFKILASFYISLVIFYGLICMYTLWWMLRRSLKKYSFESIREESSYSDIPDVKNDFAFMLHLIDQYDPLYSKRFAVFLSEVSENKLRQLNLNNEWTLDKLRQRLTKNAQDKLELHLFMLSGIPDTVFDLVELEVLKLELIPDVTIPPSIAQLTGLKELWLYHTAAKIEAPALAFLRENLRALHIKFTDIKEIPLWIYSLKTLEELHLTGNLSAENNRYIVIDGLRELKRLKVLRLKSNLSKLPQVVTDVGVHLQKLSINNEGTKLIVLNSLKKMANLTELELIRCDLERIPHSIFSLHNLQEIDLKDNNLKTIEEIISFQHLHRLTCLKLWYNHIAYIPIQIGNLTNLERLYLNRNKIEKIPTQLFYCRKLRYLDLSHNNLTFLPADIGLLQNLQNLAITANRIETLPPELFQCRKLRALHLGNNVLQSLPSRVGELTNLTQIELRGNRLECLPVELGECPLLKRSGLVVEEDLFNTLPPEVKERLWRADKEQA
# UniProt P30530, sequence (whole entry, looked up): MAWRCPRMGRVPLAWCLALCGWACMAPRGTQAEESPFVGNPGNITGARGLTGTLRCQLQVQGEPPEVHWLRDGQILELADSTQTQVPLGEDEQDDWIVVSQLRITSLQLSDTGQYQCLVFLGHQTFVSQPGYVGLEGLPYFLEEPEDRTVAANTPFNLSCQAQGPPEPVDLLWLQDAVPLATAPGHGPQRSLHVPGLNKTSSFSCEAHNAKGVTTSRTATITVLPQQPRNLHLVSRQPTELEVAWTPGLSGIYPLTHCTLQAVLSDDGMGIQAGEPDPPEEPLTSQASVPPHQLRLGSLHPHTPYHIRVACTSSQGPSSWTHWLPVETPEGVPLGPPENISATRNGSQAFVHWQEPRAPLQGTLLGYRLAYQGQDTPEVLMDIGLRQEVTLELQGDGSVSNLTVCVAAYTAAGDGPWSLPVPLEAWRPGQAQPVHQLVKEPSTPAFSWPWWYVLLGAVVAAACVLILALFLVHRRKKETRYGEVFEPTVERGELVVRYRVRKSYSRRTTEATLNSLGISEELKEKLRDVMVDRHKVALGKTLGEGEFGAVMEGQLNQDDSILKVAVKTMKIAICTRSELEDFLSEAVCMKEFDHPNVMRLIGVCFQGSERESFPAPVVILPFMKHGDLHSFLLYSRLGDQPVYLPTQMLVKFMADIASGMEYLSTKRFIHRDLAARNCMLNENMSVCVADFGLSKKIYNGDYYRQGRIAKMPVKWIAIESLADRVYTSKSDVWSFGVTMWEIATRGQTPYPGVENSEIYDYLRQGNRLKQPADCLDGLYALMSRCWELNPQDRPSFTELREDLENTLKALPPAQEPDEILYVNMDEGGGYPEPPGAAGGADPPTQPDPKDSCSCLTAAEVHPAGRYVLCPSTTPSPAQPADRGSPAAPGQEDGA
Structure (SMILES),target or system,test,system,conditions,scale,endpoint,result
COc1cc(-c2cc(C(C)=O)n3ccccc23)c(OC)cc1C(C)=O,BRD9,AlphaScreen,,1 µM,,inhibition,95.4%
Fc1ccc(-c2ncn(-c3ccc4ccccc4c3)c2-c2ccncc2)cc1,CSNK1D,inhibitor,,1 µM,,inhibition,1%
Cc1ccc(NC(=O)Nc2ccc3ncc(OCC4CCNCC4)nc3c2)cc1C,Protein AF-9 with DOT1L,"DOT1L binding, AlphaLISA",,10 µM,,inhibition,12%
NC/C(=C\F)COc1cccc(Cn2c(=S)[nH]c(=O)c3[nH]cnc32)c1,"Myeloperoxidase (MPO, Homo sapiens, UniProt P05164)",enzyme activity,,0.037 µM,,inhibition,73.9%
Fc1ccc(-c2ncn(-c3ccccc3)c2-c2ccncc2)cc1,CSNK1D,inhibitor,,1 µM,,inhibition,33%
CC(C)Oc1ccc(-c2ccc3ncc(OCC4CCNCC4)nc3c2)cc1,Protein AF-9 with DOT1L,"DOT1L binding, AlphaLISA",,10 µM,,inhibition,0 to 21%
CN1CCN(c2cc(-c3ccncc3)c(-c3ccc4ccccc4c3)nn2)CC1,"Secretin receptor (SCTR, Homo sapiens, UniProt P47872)","antagonist, FLIPR",,10 µM,,inhibition,21.5%
c1ccc(Oc2ccc(-c3ccc4ncc(OCC5CCNCC5)nc4c3)cc2)cc1,Protein AF-9 with DOT1L,"DOT1L binding, AlphaLISA",,10 µM,,inhibition,0 to 21%
[O-][S+]1CCCCS1 (centres unmarked),"Superoxide dismutase [Cu-Zn] (SOD1, Homo sapiens, UniProt P00441, G94A)",LC-MS,brain homogenate,"1000 µM, 1 h, 37 °C",,SOD1 dimer fraction,100%
O=C(O)C1=CCNCC1,BEST2,whole-cell patch clamp,HEK293 transiently expressing channel,"concentration not given, membrane potential 40 mV",,current density,104 pA/pF and 163 pA/pF and 19.8 pA/pF and 81.8 pA/pF and 80 pA/pF
COc1cc(-c2cc(C(C)=O)n3ccccc23)c(OC)cc1Cn1ccnc1,BRD9,AlphaScreen,,1 µM,,inhibition,94.2%
Cc1c(COc2ccc(CN3CCCCC3C(=O)NCCCCCCNC(=O)CN(C)CCCC34CCC(c5ccccc53)c3ccccc34)cc2Br)cccc1-c1ccccc1 (centres unmarked),CD274,"binding, inhibitor, HTRF",,1 µM,,inhibition,14.1 ± 1.1%
CCN1CCN(Cc2ccc(NC(=O)c3ccc(C)c(Oc4ccnc5[nH]ccc45)c3)cc2C(F)(F)F)CC1,"Serine/threonine-protein kinase mTOR (MTOR, Homo sapiens, UniProt P42345)",,Huh-7,10 µM,,inhibition,< 35%
COc1cc(C(=O)NS(=O)(=O)c2ccccc2C)ccc1Cc1cn(C)c2ccc(NC(=O)OC3CCCC3)cc12,"LRRC8A/LRRC8C (Homo sapiens, UniProt Q8IWT6+Q8TDW0, Y124F/Y126F)","ion current, whole-cell patch clamp",HCT LRRC8-/- cells,"30 µM, +100 mV, Y124F/Y126F heteromers",,inhibition,35.4% and 91.6% and 85.8% and 55.5% and 89.4%
Nc1ccc(C(=O)O)cc1,BEST2,whole-cell patch clamp,HEK293 transiently expressing channel,"concentration not given, membrane potential 0 mV",,current density,-1.31 pA/pF and -0.74 pA/pF and -0.97 pA/pF and 0.02 pA/pF and -1.55 pA/pF and -1.35 pA/pF
Cc1ccccc1-c1ccc([C@H]2[C@H](CO)N3C(=O)CN(C(=O)c4cccnc4)C[C@@H]23)cc1,IDE,"enzyme activity, inhibitor, fluorogenic kinetic",,added: Mca-RPPGFSAFK(Dnp)-OH substrate,,EC50,6.1 µM
FC(F)(F)c1cccc(Nc2ccc3ncc(OCC4CCNCC4)nc3c2)c1,Protein AF-9 with DOT1L,"DOT1L binding, AlphaLISA",,10 µM,,inhibition,19 to 40%
Cc1ccccc1-c1ccc([C@@H]2[C@H](CO)N3CCCCN(C(=O)NC4CCCC4)C[C@@H]23)cc1,IDE,"enzyme activity, inhibitor, fluorogenic kinetic",,added: Mca-RPPGFSAFK(Dnp)-OH substrate,,EC50,1.55 µM
O=C(CCN1C(=O)c2ccccc2C1=O)OCc1nc2cc(C(F)(F)F)ccc2c(=O)[nH]1,"uncharacterized protein (Erigeron canadensis, UniProt A0A8M0FGR5)",enzyme activity,,100 mg/L,,inhibition,> 30%
C=C(C)[C@@H](CC=C(C)C)C[C@@]12C[C@@H](CC=C(C)C)C(C)(C)[C@@](CC=C(C)C)(C(=O)C(C(=O)c3ccc(O)c(O)c3)=C1O)C2=O,SIRT3,,,50 µM,,inhibition,10%
CCOCCOCCOCCNC(=S)NCCCC[C@H](NS(C)(=O)=O)C(=O)N[C@H](C)C(=O)N[C@@H](CCCNC(=N)N)C(N)=O,SIRT3,"enzyme activity, inhibitor",,10 µM,,inhibition,< 5%
COc1cccc2c1C(=O)c1c(O)c3c(c(O)c1C2=O)C[C@@](O)(C(=O)CO)C[C@@H]3O[C@H]1C[C@H](NC(=O)[C@@H]2CCCN2C(=O)CNC(=O)[C@@H](N)CC(C)C)[C@H](O)[C@H](C)O1,,,"healthy mouse, plasma","intravenous, 94.4 mg/kg PhAc-ALGP-Dox",,Cmax,1300 ± 180 nM
O=C(Nc1cccc2c(=O)cc(-c3nnn[nH]3)oc12)c1ccc(OCCCCc2ccccc2)cc1,"Volume-regulated anion channel subunit LRRC8C, part LRRC8A IL1 chimera (LRRC8C, Homo sapiens, UniProt Q8TDW0, L136K)","ion current, inhibitor, whole-cell patch clamp",HCT LRRC8-/- cells,"10 µM, -100 mV",,inhibition,86.7% and 89.1% and 81.1% and 86.3%
COc1cc(-c2cc(C(C)=O)n3ccccc23)c(OC)cc1CN1CCOCC1,BRD9,AlphaScreen,,1 µM,,inhibition,93.5%
CC(C)c1noc2ncc(C(=O)c3ccccc3O)cc12,ATP-sensitive inward rectifier potassium channel 1,"ion current, inhibitor, whole-cell patch clamp",,10 µM,,inhibition,5.59% and 5.93% and 6.9% and 1.19% and 4.17%
O=C(N[C@@H](CSCc1nc2cc([N+](=O)[O-])ccc2[nH]1)C(=O)NO)c1ccccc1,"Lactoylglutathione lyase (GLO1, Homo sapiens, UniProt Q04760)","enzyme activity, inhibitor",,concentration not given,,inhibition,inactive
CCN(CC)c1ccc(C2Nc3ccc(C(=O)c4ccccc4)cc3NC3=C2C(=O)CC(C)(C)C3)cc1 (centres unmarked),GABAA receptor,binding,,10 µM,,inhibition,36%
O=C(NO)c1ccc(CN2CCCCc3ccccc32)c(F)c1,"Alpha-1B adrenergic receptor (ADRA1B, Homo sapiens, UniProt P35368)","radioligand binding, radioligand displacement",,"10 µM, mean of replicates",,inhibition,5.71%
O=C(C[C@@H](C(F)F)n1ccc(F)n1)N1CCC(O)(Cn2cnc3c(cnn3-c3ccc(F)cc3)c2=O)CC1,"Ubiquitin carboxyl-terminal hydrolase 7 (USP7, Homo sapiens, UniProt Q93009)","enzyme activity, inhibitor",,0.5 µM,,inhibition,95.2% and 101%
O=c1nc(SCc2ccc(C(F)(F)F)cc2)nc(SCc2ccc3sccc3c2)[nH]1,"DNA topoisomerase 2-alpha (TOP2A, Homo sapiens, UniProt P11388)",decatenation,,"31.25 µM, replicate 2",,decatenated DNA,0%
COC(=O)c1c(OC)cc(-c2cc(C(C)=O)n3ccccc23)cc1OC,BRD9,AlphaScreen,,1 µM,,inhibition,95.1%
C=CC[C@@H]1/C=C(\C)C[C@H](C)C[C@H](OC)[C@H]2O[C@@](O)(C(=O)C(=O)N3CCCC[C@H]3C(=O)O[C@H](/C(C)=C/[C@@H]3CC[C@@H](O)[C@H](OC)C3)[C@H](C)[C@@H](O)CC1=O)[C@H](C)C[C@@H]2OC,,,rat,"intraperitoneal, 0.5 mg/kg/day, day 28",relative to: vehicle,plasma renin concentration,increased
Cc1[nH]c(C)c(-c2ccc(-c3cccc(C(F)(F)F)c3)nc2)c(=O)c1Br,Plasmodium yoelii,,17XL,384-well,,IC50,0.156 ± 0.063 µM
COc1ccc(C(=O)/C=C/c2cccc(-c3cccc(-c4ccc(CNCc5c(C)cc(C)[nH]c5=O)c(OC)n4)c3C)c2)cc1,CD274,"binding, inhibitor, HTRF",,1 µM,,inhibition,12.4 ± 2.4%
COc1cccc(-c2cc(C(C)=O)n3ccccc23)c1,BRD9,AlphaScreen,,1 µM,,inhibition,86.1%
CC(C)c1ccc(Oc2ccc3ncc(OCC4CCNCC4)nc3c2)cc1,Protein AF-9 with DOT1L,"DOT1L binding, AlphaLISA",,10 µM,,inhibition,2 to 16%
COc1cc(-c2cc(C(C)=O)n3ccccc23)c(OC)cc1CN1CC(O)C1,BRD9,AlphaScreen,,1 µM,,inhibition,94.5%
Cn1cc(-c2cnc3ccc(NC(=O)Nc4ccc(F)c(Br)c4)cc3n2)cn1,"Mitogen-activated protein kinase kinase kinase 1 (MAP3K1, Homo sapiens, UniProt Q13233)","kinase binding, KiNativ profiling, measured: Lys2 peptide",PANC-1 lysate,10 µM,,inhibition,67.6%
Cn1cncc1C1=CN(c2ncnc3[nH]cnc23)CCS1,RAF1 (human),"kinase activity, inhibitor, radiometric kinase",,2 µM,,inhibition,47%
COc1cc2nccc(Oc3ccc(NC(=O)c4cc5c(n(-c6ccccc6)c4=O)CCCC5=O)nc3)c2cc1OC,AXL,plasma inhibitory activity,human patients,6 mg/day,,inhibition,67 to 92%
Cc1ccc(C(=O)Nc2ccc3ccccc3c2)o1,ATP-sensitive inward rectifier potassium channel 1,"ion current, inhibitor, whole-cell patch clamp",,10 µM,,inhibition,4.29% and 0.19% and 0% and 7.73% and 4.69%
c1cc(-c2ccc(-c3ccc4ncc(OCC5CCNCC5)nc4c3)cc2)ccn1,Protein AF-9 with DOT1L,"DOT1L binding, AlphaLISA",,10 µM,,inhibition,14 to 17%
Cc1c(COc2ccc(CN3CCCCC3C(=O)NCCNC(=O)CN(C)CCCC34CCC(c5ccccc53)c3ccccc34)cc2Br)cccc1-c1ccccc1 (centres unmarked),CD274,"binding, inhibitor, HTRF",,1 µM,,inhibition,8.3 ± 1.9%
CCCCCCCCCCCCNC(=O)NCCCC[C@H](NS(C)(=O)=O)C(=O)N[C@H](C)C(=O)N[C@@H](CCCNC(=N)N)C(N)=O,SIRT3,"enzyme activity, inhibitor",,10 µM,,inhibition,< 5%
CC[C@@H]1[C@H](F)C(=O)N[C@@H]1COc1nccc2cc(C(N)=O)c(OC)cc12,AXL,"ATP-site probe binding, inhibitor, ActivX ATP probe profiling",THP-1 cell lysate,"0.01 mM, activation loop site",,inhibition,0.7%
Cc1c(COc2ccc(CN3CCCCC3C(=O)NCCCNC(=O)CN(C)CCCC34CCC(c5ccccc53)c3ccccc34)cc2Br)cccc1-c1ccccc1 (centres unmarked),CD274,"binding, inhibitor, HTRF",,1 µM,,inhibition,10.9 ± 2.2%
Cc1[nH]c(C)c(-c2ccc(Oc3ccc(Cl)cc3)cc2)c(=O)c1Br,Plasmodium yoelii,,17XL,384-well,,IC50,0.61 ± 0.144 µM
COc1ccc(-n2nc(C)c3conc3c2=O)cc1,GABAA receptor,"binding, radioligand displacement",,"concentration not given, added: muscimol radioligand",,inhibition,-21.5%
c1cc(N2CCNCC2)ccc1-c1ccc2ncc(OCC3CCNCC3)nc2c1,Protein AF-9 with DOT1L,"DOT1L binding, AlphaLISA",,10 µM,,inhibition,16%
COc1cc(-c2cc(C(C)=O)n3ccccc23)c(OC)cc1C=O,BRD9,AlphaScreen,,1 µM,,inhibition,92.6%
C=CC(=O)Nc1cc(Nc2nccc(Nc3cc(Cl)c(F)cc3C(C)(C)O)n2)c(OC)cc1N1CC[C@@H](N(C)C)C1,"CaMKII, human",kinase activity,,1 µM,,inhibition,9%
O=C(c1ccc(F)cc1)N(Cc1ccccc1)C1CCCCC1,"Gamma-aminobutyric acid type B receptor subunit 1 (GABBR1, Homo sapiens, UniProt Q9UBS5)",,,10 µM,,inhibition,-5%
[2H]c1cc(C)c(NC(=O)c2cnc(Nc3cc(N4CCCCC4)nc(C)n3)s2)c(Cl)c1,"Proto-oncogene tyrosine-protein kinase receptor Ret (RET, Homo sapiens, UniProt P07949, G691S)",,,0.01 µM,,inhibition,< 30%
